{"data": "Experimental data gathered from unrelated publications", "note": "Each numbered part is a random draw from the data of one study; scales do not carry over between parts. Substitutions count along the parent as printed."}
{"data": "Study 1", "target": "Fragile X messenger ribonucleoprotein 1, C-terminal low-complexity region (Fmr1, Mus musculus, UniProt P35922)", "technique": "RNA Bind-n-Seq", "molecule type": "RNA", "sample": "in vitro", "tested at": "200 nM", "setting": "whole 134-nt RNA, ends assumed", "added": "150 mM LiCl", "baseline": "input library", "direction": "higher = stronger binding", "library": "7-deaza-guanosine replaces G", "all sequences stand within": "GGGAGUUCUACAGUCCGACGAUC … UGGAAUUCUCGGGUGUCAAGG"}
{"Sequence": "AGUCCUGUGCUACACAUCGUAUGUACCGAAUCAAACCCAAACCCAAACCCCCCCAAAAAAGUAUUAUGUUACGCCGUUCGGAUCUGCACU", "log2 enrichment": 0.251}
{"Sequence": "UGGGAGGUGGAUUUUGUUUAUUUUUUUAGCUCAUUUCCAGGGGUGGGAAUUUUUUUUUAAUAUGUGUCAUGAAUAAAGUAGUUUUUGAAA", "log2 enrichment": 0.112}
{"Sequence": "AGUCCUGUGCUACACAUCGUAUGUACCGAAUCGGGGAAAAAGGGGAGGGGAAAGGGGAAAGUAUUAUGUUACGCCGUUCGGAUCUGCACU", "log2 enrichment": 0.144}
{"Sequence": "CUCAAGUCCUGUGCUACACAUCGUAUGUACCGAAUCGGGGCGGGGCGGCGGGGAAAGUAUUAUGUUACGCCGUUCGGAUCUGCACUUCCA", "log2 enrichment": -0.699}
{"Sequence": "UAUCUUUAGAGGAGGAUCUGAUGGAUAUGGCAGUGGACGUGGAUUUGGGGAUGGCUAUAAUGGGUAUGGAGGAGGACCUGGAGGUGGCAA", "log2 enrichment": 0.0452}
{"Sequence": "CAAGUCCUGUGCUACACAUCGUAUGUACCGAAUCGGGGUUUGGGGUUUGGGUUUGGAAAGUAUUAUGUUACGCCGUUCGGAUCUGCACUU", "log2 enrichment": -1.53}
{"Sequence": "UCAAGUCCUGUGCUACACAUCGUAUGUACCGAAUCGGGUUUGGGUUUGGGUUUGGAAAGUAUUAUGUUACGCCGUUCGGAUCUGCACUUC", "log2 enrichment": -1.01}
{"data": "Study 2", "target": "ABI1, truncated, D143A, DHFR fusion (Arabidopsis thaliana)", "technique": "DHFR PCA, deep sequencing", "sample": "yeast", "setting": "methotrexate growth selection, single substitutions", "added": "(+)-ABA 200 µM", "baseline": "wild-type fitted maximum", "direction": "higher = stronger binding", "starting sequence": "PYL1, truncated, DHFR fusion (Arabidopsis thaliana); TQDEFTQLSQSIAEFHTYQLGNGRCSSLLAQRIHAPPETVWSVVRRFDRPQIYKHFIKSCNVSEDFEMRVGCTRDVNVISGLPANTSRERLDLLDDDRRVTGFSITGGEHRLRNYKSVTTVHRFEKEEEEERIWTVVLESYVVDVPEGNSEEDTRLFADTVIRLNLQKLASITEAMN; partner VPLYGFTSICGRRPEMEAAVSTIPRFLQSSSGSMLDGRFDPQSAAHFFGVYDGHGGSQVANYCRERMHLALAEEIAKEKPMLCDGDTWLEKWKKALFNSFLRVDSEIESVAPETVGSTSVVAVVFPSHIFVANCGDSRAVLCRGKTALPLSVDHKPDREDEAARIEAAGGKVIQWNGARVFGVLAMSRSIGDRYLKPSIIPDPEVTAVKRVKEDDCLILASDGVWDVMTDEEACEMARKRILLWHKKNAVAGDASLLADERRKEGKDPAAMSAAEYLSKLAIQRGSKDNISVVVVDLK"}
{"Variant": "K168A", "relative binding score [%]": 92.5}
{"Variant": "P36R", "relative binding score [%]": 94.1}
{"Variant": "E129F", "relative binding score [%]": 100}
{"Variant": "A175K", "relative binding score [%]": 96.4}
{"Variant": "E38M", "relative binding score [%]": 71.1}
{"Variant": "E4L", "relative binding score [%]": 99.4}
{"Variant": "N85W", "relative binding score [%]": 102}
{"Variant": "R99K", "relative binding score [%]": 111}
{"Variant": "D153L", "relative binding score [%]": 2.31}
{"Variant": "R88G", "relative binding score [%]": 59.2}
{"data": "Study 3", "target": "CCNF, cyclin fold, Cln2 fusion (human)", "technique": "yeast growth competition, sequencing", "sample": "yeast", "setting": "strong parent motif", "baseline": "not given", "direction": "higher = stronger binding", "starting sequence": "RRM2 docking peptide (human); SKTARRIFQEPTE; partner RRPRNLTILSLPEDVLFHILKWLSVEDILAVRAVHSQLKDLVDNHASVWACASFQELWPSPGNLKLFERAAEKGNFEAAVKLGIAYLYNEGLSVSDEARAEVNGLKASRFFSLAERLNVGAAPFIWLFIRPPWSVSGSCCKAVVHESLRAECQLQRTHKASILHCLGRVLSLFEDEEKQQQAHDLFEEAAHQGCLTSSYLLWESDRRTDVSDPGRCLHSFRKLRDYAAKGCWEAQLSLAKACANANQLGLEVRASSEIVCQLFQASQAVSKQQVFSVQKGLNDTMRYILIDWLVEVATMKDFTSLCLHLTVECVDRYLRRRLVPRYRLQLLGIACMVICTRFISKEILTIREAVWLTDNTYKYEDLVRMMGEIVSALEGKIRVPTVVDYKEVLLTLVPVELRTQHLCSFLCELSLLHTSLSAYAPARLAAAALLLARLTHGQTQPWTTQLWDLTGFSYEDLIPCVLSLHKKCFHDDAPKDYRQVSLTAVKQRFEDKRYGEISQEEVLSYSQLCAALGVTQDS"}
{"Variant": "SKTARRAFQEPTE [I7A]", "normalised enrichment score": 0.481}
{"Variant": "SKTARRIFQEATE [P11A]", "normalised enrichment score": 4.05}
{"Variant": "SKTAARIFQEPTE [R5A]", "normalised enrichment score": 0.111}
{"Variant": "SATARRIFQEPTE [K2A]", "normalised enrichment score": 4.22}
{"Variant": "SKTARRIAQEPTE [F8A]", "normalised enrichment score": 0.22}
{"Variant": "SKTARRIFAEPTE [Q9A]", "normalised enrichment score": 5.13}
{"data": "Single results of other studies"}
{"Molecule": "PhoQ, residues 284 288 289 292 302 303 AEGLLW", "target": "PhoP, residues 12 14 15 18 19 HEGLL (Escherichia coli, UniProt P23836)", "assay": "Sort-seq, refers to: YFP reporter", "test system": "E. coli", "setting": "PhoQ-PhoP variant library, added: 10 µM Mg2+", "how to read": "baseline: high Mg2+ state, higher = stronger signaling", "endpoint": "fold induction", "result": 0.771}
{"note": "Repeated from above (study 1):"}
{"Sequence": "CAAGUCCUGUGCUACACAUCGUAUGUACCGAAUCGGGGUUUGGGGUUUGGGUUUGGAAAGUAUUAUGUUACGCCGUUCGGAUCUGCACUU", "log2 enrichment": -1.53}
{"Sequence": "CUCAAGUCCUGUGCUACACAUCGUAUGUACCGAAUCGGGGCGGGGCGGCGGGGAAAGUAUUAUGUUACGCCGUUCGGAUCUGCACUUCCA", "log2 enrichment": -0.699}
{"Sequence": "UGGGAGGUGGAUUUUGUUUAUUUUUUUAGCUCAUUUCCAGGGGUGGGAAUUUUUUUUUAAUAUGUGUCAUGAAUAAAGUAGUUUUUGAAA", "log2 enrichment": 0.112}
